Assay results of several laboratories.
Each line is one published result; not all experiments were run side by side. “And” joins repeats or separate records; there may be more than shown. ± gives the spread as reported.

Compound	test	test system	setting	how to read	measurement	result
C[C@]1(CO)Cc2ncn(-c3ccc(C#N)c(Cl)c3)c2C(=O)O1		human, plasma	0.7 mg single dose, median		tmax	30 min
COc1ccc2nc3cc(Cl)ccc3c(Nc3cc(CN4CCCC4)c(O)c(CN4CCCC4)c3)c2n1		mouse, blood	intraperitoneal, 57 mg/kg		platelet distribution width	15.6%
CCc1ccc(CC/C=C/c2ccc3c(c2)C(=O)CC3)cc1		Sprague-Dawley rat, male, blood	oral, 30 mg/kg/day, 14 days		prothrombin time	13.1 s
O=S(=O)(CC1CS1)c1ccc(Oc2ccccc2)cc1 (racemic)	NMR	methanol	one month, room temperature, with: NaOAc, Zn(OAc)2		unreacted compound	40%
C[C@H]1COCCN1c1nc(NCc2cccnc2C(F)(F)F)c2cccnc2n1		BALB/c mice	intravenous, 5 mg/kg		AUC(0-24 h)	10700 ng·h/mL
C[C@@H]1OC(=O)NN=C1c1ccc(-c2ccc(F)cc2)c(C(F)(F)F)c1	phase I trial, refers to: Diarrhoea all grades	human patients	dose not given, all dose groups		patients with adverse event	20%
CC[C@H](C)[C@H](NC(=O)[C@H](Cc1ccccc1)NC(=O)[C@H](CCC(=O)O)NC(=O)[C@H](CCCNC(=N)N)NC(=O)[C@H](C)NC(=O)[C@H](C)NC(=O)[C@H](CCC(N)=O)NC(=O)[C@H](CCC(=O)O)NC(=O)[C@H](CCC(=O)O)NC(=O)[C@H](CC(C)C)NC(=O)[C@H](Cc1ccc(O)cc1)NC(=O)[C@H](CO)NC(=O)[C@H](CO)NC(=O)[C@@H](NC(=O)[C@H](CC(=O)O)NC(=O)[C@H](CO)NC(=O)[C@@H](NC(=O)[C@H](Cc1ccccc1)NC(=O)[C@@H](NC(=O)CNC(=O)[C@H](CCC(=O)O)NC(=O)[C@H](C)NC(=O)CCc1cnc[nH]1)[C@@H](C)O)[C@@H](C)O)C(C)C)C(=O)N[C@@H](C)C(=O)N[C@@H](Cc1c[nH]c2ccccc12)C(=O)N[C@@H](CC(C)C)C(=O)N[C@H](C(=O)N[C@@H](CCCNC(=N)N)C(=O)NCC(=O)N[C@@H](CCCNC(=N)N)C(=O)N[C@@H](CCCCNC(=O)COCCOCCNC(=O)COCCOCCNC(=O)CC[C@H](NC(=O)CCCCCCCCCCCCCCCCC(=O)O)C(=O)O)C(=O)NCC(=O)NCC(=O)N[C@@H](CO)C(=O)N[C@@H](CCSC)C(=O)N[C@H](C(=O)N[C@@H](CCCCNc1c(NCCCCCN(O)C(=O)CCC(=O)NCCCCCN(O)C(=O)CCC(=O)NCCCCCN(O)C(C)=O)c(=O)c1=O)C(=O)O)C(C)C)C(C)C [zirconium-89 labelled]	ex vivo gamma counting	Sprague-Dawley rat, brain	intravenous, dose not given, 24 h		tissue uptake	0.009 %ID/g
CN(C)c1cccc2c(S(=O)(=O)N3CCN(c4ccccc4)CC3)cccc12		toluene	20 °C		emission maximum	483 nm
CC(C)Nc1ccnc(Nc2cccc(-c3cccnc3)c2)n1	refers to: globulin	mouse, blood	intraperitoneal, 5 mg/kg		blood chemistry	1.8 g/dL
O=C1Nc2cc3[nH]nc(-c4ccncc4)c3cc2CN1Cc1ccccc1	CTCAE v4.03	advanced solid tumour patients	intravenous, 4.8 mg/kg, schedules 1/2		patients with back pain	0%
O=C(N[C@@H](CSCc1ccc([N+](=O)[O-])cc1)C(=O)NO)c1ccccc1		ICR mouse, male	oral, 14 days		LD50	> 2000 mg/kg
[2H]C([2H])([18F])[C@]([2H])(N)C(=O)O	PET	athymic nude mice, U-87 MG	dose not given, 60 min post-injection	reference: tumour over muscle	tumour-to-muscle ratio	1.09 ± 0.11
C=CC(=O)N1CC[C@H](n2nc(C#Cc3cc(OC)cc(OC)c3)c3c(N)ncnc32)C1		human patients	oral, dose not given, QD regimen, adverse drug reaction, with: sevelamer hydrochloride		hyperphosphatemia incidence, grade ≥3	0%
O=S(=O)(Nc1ccccc1)c1ccc(NC(=S)Nc2ccccc2)cc1		mouse, male, blood	oral, 80 mg/kg daily, 14 days		mean corpuscular volume	47.5 fL
O=C(O)CCCOc1ccc(F)cc1-c1cc(-c2ccccc2C(F)(F)F)n(-c2ccccc2)n1		male Crl:CD(SD) rats, lungs	intravenous, 25 µg/kg, 14 d		organ weight	1.27 ± 0.04 g
COc1ncnn2ccc(-c3cnc4nc(C)n(Cc5nnc([C@@H](C)F)o5)c4c3)c12		human	oral, dose not given, grade 4		patients with malaise	0%
CC(C)C[C@H](NC(=O)[C@H](CCCCN)NC(=O)OCC1c2ccccc2-c2ccccc21)C(=O)N[C@H](C(=O)N[C@@H](Cc1ccccc1)C(=O)N[C@@H](Cc1ccccc1)C(=O)N[C@@H](CCCCN)C(=O)NCC(=O)N[C@@H](Cc1ccccc1)C(=O)N[C@@H](C)C(=O)N[C@@H](Cc1c[nH]c2ccccc12)C(=O)N[C@@H](CC(N)=O)C(=O)N[C@H](C(=O)N[C@H]1CSSC[C@@H](C(=O)N[C@@H](Cc2c[nH]cn2)C(=O)N[C@@H](CCCNC(=N)N)C(=O)N[C@@H](CCCNC(=N)N)C(=O)N[C@@H](C)C(=O)N[C@@H](CC(N)=O)C(N)=O)NC(=O)[C@H](C(C)C)NC(=O)[C@H](CCCNC(=N)N)NC(=O)[C@H](C(C)C)NC(=O)CNC(=O)[C@H](CC(N)=O)NC(=O)[C@H](CCCNC(=N)N)NC(=O)[C@H](Cc2ccc(O)cc2)NC(=O)[C@H](C(C)C)NC1=O)C(C)C)C(C)C		ICR mice, serum	intraductal mammary, 5 mg/kg, day 5		phosphorus	3.31 ± 0.12 mmol/L
CO[C@H]1C[C@@H]2CC[C@@H](C)[C@@](O)(O2)C(=O)C(=O)N2CCCC[C@H]2C(=O)O[C@H]([C@H](C)C[C@@H]2CC[C@@H](OC(=O)NCCOCCOCCOCCOCCOCCOCCOCCOCCC(=O)N3CCc4cc(Cn5nc(-c6ccc7oc(N)nc7c6)c6c(N)ncnc65)ccc4C3)[C@H](OC)C2)C[C@@H](O)[C@H](C)/C=C(\C)[C@@H](O)[C@@H](OC)C(=O)[C@H](C)C[C@H](C)/C=C/C=C/C=C/1C	phase 1 dose escalation, refers to: mucositis	advanced solid tumour patients	intravenous, 16 mg weekly, any grade		TRAE incidence	75%
CCCCCCCCCCC[C@H](OC1OC[C@H](O)[C@@H](O)[C@@H]1O)[C@H](O)[C@H](O)C[C@@H]1CC(=O)N[C@H](CO)C(=O)N[C@H]([C@H](O)c2ccc(O)cc2)C(=O)N[C@H](CCN)C(=O)NCC(=O)N[C@@H](CC(N)=O)C(=O)N[C@@H](CO)C(=O)N[C@@H]([C@H](O)C(N)=O)C(=O)N1 (some centres unmarked)	LC-MS/MS	rabbit plasma, sodium citrate	200 ng/mL, 6 freeze-thaw cycles		measured concentration	162 ng/mL
COc1cc2c(Oc3ccc4[nH]c(C)cc4c3F)ccnc2cc1OCC1(N)CC1		paediatric recurrent refractory sarcoma	12 mg		Epistaxis incidence	18.2%
Oc1ccc(CSCc2ccc(O)cc2)cc1		ICR mice male	oral, 3000 mg/kg, day 8, acute toxicity	reference: day 1	body weight gain	5.12 ± 0.89 g
COc1cccc(Oc2ccccc2NC(=O)CNC(=O)c2cccc3ccccc23)c1		esterase-deficient SCID mice, male	oral, 15 mg/kg/day, 14 days, toxicity study		sodium/potassium ratio	20 and 21
Cn1nc(NS(C)(=O)=O)c2c(Cl)ccc(-n3c([C@H](Cc4cc(F)cc(F)c4)NC(=O)Cn4nc(C(F)F)c5c4C(F)(F)[C@@H]4C[C@H]54)nc4nc(OCCC(F)(F)F)ccc4c3=O)c21	refers to: total bile acids increased	human	200 mg, powder in bottle		drug-related adverse events	0%
CC(C)(O)c1cc(Nc2cc(Oc3cn(C4CC4)nc3C3CCOCC3)ccn2)ccn1	Thrombocytopenia	patients with advanced cancer, Japanese cohort	oral, dose not given, grade ≥3		treatment-related adverse events	0%
Clc1ccc(-c2cc(Cl)c(Cl)cc2Cl)cc1Cl		whole cow milk	50 nM nominal		dose fraction in milk fat	81.1%
C=CC(=O)Nc1cc(Nc2nccc(Nc3cc(Cl)c(F)cc3C(C)(C)O)n2)c(OC)cc1N1CC[C@@H](N(C)C)C1		human patients	oral, 200 mg, treatment-emergent adverse events		patients with diarrhoea	62.5%

For quick reference, copied from above:
Compound	test	test system	setting	how to read	measurement	result
O=S(=O)(CC1CS1)c1ccc(Oc2ccccc2)cc1 (racemic)	NMR	methanol	one month, room temperature, with: NaOAc, Zn(OAc)2		unreacted compound	40%
C[C@H]1COCCN1c1nc(NCc2cccnc2C(F)(F)F)c2cccnc2n1		BALB/c mice	intravenous, 5 mg/kg		AUC(0-24 h)	10700 ng·h/mL
